Measured values of several laboratories.
Numbered parts are unrelated; each lists some results of a single study.
Chain of UniProt O75417 (whole entry, unmodified, looked up): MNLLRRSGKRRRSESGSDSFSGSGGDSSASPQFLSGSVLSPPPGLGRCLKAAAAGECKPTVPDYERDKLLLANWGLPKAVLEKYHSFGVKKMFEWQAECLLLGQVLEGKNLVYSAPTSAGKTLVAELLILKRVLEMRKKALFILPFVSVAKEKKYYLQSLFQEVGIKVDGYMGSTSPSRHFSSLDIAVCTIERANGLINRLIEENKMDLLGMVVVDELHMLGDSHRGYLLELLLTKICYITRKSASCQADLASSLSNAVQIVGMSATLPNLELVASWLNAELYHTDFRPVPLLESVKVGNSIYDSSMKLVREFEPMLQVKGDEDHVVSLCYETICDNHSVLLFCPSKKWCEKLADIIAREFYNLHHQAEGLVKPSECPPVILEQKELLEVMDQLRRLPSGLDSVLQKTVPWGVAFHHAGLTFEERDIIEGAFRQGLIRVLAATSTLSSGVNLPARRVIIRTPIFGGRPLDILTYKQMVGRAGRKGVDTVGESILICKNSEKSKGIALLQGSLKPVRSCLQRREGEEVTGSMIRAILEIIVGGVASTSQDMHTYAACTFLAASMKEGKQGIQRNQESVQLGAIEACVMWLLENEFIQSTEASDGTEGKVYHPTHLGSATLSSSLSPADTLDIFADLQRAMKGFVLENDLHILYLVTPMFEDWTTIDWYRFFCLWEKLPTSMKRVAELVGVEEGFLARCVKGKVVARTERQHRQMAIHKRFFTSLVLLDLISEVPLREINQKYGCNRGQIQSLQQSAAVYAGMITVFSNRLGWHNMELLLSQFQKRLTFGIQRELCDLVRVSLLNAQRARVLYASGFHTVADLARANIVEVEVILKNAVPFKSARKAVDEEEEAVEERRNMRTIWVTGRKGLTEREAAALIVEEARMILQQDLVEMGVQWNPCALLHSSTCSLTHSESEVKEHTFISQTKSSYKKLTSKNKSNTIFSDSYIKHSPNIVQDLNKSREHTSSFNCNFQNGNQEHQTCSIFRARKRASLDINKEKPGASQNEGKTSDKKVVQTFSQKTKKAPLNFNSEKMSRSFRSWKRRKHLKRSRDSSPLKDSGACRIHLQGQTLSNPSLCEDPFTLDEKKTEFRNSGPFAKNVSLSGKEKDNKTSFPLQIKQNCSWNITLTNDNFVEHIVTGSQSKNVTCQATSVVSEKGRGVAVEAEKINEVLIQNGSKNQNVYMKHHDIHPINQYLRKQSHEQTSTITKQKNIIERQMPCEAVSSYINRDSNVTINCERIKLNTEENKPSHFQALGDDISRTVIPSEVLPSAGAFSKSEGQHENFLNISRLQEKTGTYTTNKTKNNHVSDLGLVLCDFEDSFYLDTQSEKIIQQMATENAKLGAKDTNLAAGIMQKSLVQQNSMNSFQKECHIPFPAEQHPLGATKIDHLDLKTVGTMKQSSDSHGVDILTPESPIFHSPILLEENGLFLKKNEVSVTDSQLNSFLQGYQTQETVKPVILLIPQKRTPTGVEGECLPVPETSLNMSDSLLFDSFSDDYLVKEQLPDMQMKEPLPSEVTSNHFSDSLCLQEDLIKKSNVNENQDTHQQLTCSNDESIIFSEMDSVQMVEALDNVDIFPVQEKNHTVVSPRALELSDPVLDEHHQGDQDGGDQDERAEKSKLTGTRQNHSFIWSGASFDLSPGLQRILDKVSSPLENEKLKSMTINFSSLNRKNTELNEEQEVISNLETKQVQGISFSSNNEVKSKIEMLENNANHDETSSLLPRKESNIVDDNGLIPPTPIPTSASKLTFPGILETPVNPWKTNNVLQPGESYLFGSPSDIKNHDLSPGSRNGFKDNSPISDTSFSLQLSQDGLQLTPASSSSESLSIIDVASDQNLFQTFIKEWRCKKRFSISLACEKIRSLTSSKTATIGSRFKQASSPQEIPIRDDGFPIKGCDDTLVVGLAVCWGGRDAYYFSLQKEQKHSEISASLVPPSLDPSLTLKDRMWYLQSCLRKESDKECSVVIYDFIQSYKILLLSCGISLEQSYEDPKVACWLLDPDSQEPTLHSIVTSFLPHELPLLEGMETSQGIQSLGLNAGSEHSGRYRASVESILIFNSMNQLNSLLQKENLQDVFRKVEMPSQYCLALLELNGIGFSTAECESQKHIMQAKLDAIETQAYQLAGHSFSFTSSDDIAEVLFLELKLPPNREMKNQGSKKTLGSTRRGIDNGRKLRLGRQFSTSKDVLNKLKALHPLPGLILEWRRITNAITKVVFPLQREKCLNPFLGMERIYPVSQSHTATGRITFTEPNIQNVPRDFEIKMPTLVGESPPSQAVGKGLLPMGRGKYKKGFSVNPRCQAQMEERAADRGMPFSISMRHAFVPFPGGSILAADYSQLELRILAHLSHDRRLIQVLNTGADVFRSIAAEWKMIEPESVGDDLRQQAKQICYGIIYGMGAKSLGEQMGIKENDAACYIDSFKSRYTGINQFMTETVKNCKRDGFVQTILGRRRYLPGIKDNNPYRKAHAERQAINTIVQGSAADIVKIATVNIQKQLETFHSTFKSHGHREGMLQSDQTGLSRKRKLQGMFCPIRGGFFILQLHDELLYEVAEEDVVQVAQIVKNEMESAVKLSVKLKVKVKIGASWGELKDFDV
Chain of UniProt Q14012 (whole entry, looked up): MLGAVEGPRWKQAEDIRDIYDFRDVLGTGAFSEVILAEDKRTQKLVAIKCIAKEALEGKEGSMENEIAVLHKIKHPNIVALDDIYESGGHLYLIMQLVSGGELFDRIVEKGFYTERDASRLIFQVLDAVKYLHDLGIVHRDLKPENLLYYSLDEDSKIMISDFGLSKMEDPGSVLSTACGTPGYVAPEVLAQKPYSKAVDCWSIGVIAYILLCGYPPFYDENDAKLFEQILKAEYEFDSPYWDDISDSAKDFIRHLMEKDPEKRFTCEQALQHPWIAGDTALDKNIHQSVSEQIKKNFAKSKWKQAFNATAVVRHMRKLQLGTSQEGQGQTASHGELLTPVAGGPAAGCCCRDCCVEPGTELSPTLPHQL
Chain of UniProt Q15208 (whole entry, looked up): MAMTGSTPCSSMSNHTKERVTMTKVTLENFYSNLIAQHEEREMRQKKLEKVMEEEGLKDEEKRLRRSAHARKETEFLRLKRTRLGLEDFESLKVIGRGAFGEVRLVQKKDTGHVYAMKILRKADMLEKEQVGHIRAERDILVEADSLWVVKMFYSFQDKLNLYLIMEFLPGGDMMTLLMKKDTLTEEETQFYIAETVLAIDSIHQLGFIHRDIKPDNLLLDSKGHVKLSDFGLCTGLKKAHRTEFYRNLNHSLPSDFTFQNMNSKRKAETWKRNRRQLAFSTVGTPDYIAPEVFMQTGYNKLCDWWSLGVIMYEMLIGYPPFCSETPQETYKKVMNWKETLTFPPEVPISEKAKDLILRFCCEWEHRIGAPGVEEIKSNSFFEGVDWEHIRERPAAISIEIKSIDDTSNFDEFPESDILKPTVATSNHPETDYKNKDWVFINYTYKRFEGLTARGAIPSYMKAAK
Chain of UniProt P21709 (whole entry, looked up): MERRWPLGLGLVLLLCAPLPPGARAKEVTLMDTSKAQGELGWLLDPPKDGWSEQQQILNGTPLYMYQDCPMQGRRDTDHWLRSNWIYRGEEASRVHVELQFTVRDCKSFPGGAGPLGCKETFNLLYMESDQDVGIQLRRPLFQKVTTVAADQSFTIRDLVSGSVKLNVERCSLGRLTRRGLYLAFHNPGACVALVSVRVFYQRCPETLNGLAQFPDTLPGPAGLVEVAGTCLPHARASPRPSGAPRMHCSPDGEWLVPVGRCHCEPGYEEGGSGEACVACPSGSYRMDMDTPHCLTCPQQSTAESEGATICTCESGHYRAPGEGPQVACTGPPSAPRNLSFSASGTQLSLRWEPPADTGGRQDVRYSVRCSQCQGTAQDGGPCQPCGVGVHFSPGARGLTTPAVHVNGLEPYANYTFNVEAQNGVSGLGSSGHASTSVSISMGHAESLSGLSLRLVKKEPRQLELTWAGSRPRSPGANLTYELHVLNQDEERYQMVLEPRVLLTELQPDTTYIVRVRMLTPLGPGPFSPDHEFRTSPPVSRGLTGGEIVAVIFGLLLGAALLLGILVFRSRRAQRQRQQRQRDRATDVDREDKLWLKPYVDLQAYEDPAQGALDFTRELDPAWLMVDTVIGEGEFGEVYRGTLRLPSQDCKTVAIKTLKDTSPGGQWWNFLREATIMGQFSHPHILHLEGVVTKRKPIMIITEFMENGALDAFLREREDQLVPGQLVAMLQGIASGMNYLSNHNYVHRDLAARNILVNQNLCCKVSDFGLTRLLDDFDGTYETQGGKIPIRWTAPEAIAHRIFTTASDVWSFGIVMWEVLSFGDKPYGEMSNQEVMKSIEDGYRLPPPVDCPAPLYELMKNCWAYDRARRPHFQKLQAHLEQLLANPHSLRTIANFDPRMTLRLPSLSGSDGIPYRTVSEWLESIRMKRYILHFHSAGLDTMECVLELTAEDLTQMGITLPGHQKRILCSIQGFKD

Block 1 — read-out: enzyme activity; mode: inhibitor; concentration: 10 µM; endpoint: inhibition
Target: Calcium/calmodulin-dependent protein kinase type II subunit alpha (CAMK2A, Homo sapiens, UniProt Q9UQM7)
Chain of UniProt Q9UQM7 (whole entry, looked up): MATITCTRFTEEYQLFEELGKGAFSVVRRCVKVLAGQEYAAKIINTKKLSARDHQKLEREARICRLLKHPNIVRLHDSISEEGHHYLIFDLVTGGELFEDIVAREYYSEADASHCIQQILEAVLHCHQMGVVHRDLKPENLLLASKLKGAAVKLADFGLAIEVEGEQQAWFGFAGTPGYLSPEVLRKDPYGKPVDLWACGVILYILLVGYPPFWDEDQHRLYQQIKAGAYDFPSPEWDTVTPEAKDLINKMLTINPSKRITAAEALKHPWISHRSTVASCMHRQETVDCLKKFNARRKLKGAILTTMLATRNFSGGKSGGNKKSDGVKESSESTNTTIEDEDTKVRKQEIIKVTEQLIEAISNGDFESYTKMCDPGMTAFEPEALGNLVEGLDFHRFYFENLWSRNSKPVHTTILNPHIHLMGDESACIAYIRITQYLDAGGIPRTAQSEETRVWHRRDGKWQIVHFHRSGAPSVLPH
SMILES = CC(=O)c1ccc(O)c(O)c1; value = -15%
SMILES = CCCCCCCCCCCCCCCC(=O)OC/C=C(C)/C=C/C=C(C)/C=C/C1=C(C)CCCC1(C)C; value = 3%
SMILES = CCC(C)C(=O)C(=O)O (centres unmarked); value = 3%
SMILES = O[C@@](Cn1cnnn1)(c1ccc(F)cc1F)C(F)(F)c1ccc(-c2ccc(OCC(F)(F)F)cc2)cn1; value = -2%
SMILES = O=C(NC(Cc1cc(=O)[nH]c2ccccc12)C(=O)O)c1ccc(Cl)cc1 (centres unmarked); value = -8%
SMILES = O=C1C[C@@H](O[C@@H]2O[C@H](CO)[C@@H](O)[C@H](O)[C@H]2O)CO1; value = -3%
SMILES = CN1[C@@H](CC(=O)c2ccccc2)CCC[C@H]1C[C@H](O)c1ccccc1; value = -9%

Block 2 — read-out: enzyme activity; mode: inhibitor; concentration: 0.5 µM; baseline: control; endpoint: remaining activity
Compound: Cc1ccc(NC(=O)c2ccc(CN3CCN(C)CC3)cc2)cc1Nc1nccc(-c2cccnc2)n1
target = PRKCI (Homo sapiens, UniProt P41743); value = 91.2%
target = BTK (Homo sapiens, UniProt Q06187); value = 103%
target = MAP4K2 (Homo sapiens, UniProt Q12851); value = 107%
target = CHEK1 (Homo sapiens, UniProt O14757); value = 109%
target = CSNK2A1 (Homo sapiens, UniProt P68400); value = 107%
target = LRRK2 (Homo sapiens, UniProt Q5S007); value = 98.3%
target = PRKCD (Homo sapiens, UniProt Q05655); value = 105%
target = MKNK2 (Homo sapiens, UniProt Q9HBH9); value = 106%
target = MAP3K10 (Homo sapiens, UniProt Q02779); value = 105%
target = STK38 (Homo sapiens, UniProt Q15208); value = 100%

Block 3 — read-out: cell-free assay; technique: competition with immobilised ligand; concentration: 1 µM; endpoint: remaining binding
SMILES: Cc1c(NC(=O)c2cc(C(N)=O)nc3cc(F)ccc23)c(C(F)(F)F)nn1Cc1ccc(C(C)(C)C)cc1
target = FER (Homo sapiens, UniProt P16591); value = 100%
target = CAMK2D (Homo sapiens, UniProt Q13557); value = 84%
target = IKBKE (Homo sapiens, UniProt Q14164); value = 100%
target = RIPK4 (Homo sapiens, UniProt P57078); value = 100%
target = NEK4 (Homo sapiens, UniProt P51957); value = 100%
target = FLT3 (Homo sapiens, UniProt P36888, K663Q); value = 100%
target = RIOK3 (Homo sapiens, UniProt O14730); value = 97%
target = CAMKK2 (Homo sapiens, UniProt Q96RR4); value = 78%
target = PKN2 (Homo sapiens, UniProt Q16513); value = 100%
target = CAMK1 (Homo sapiens, UniProt Q14012); value = 82%
target = EPHA1 (Homo sapiens, UniProt P21709); value = 96%
target = Aurora kinase B (AURKB, Homo sapiens, UniProt Q96GD4); value = 100%
target = NEK6 (Homo sapiens, UniProt Q9HC98); value = 86%
target = FLT3 (Homo sapiens, UniProt P36888, ITD); value = 100%
target = Tyrosine-protein kinase ABL1, phosphorylated (ABL1, Homo sapiens, UniProt P00519, Y253F); value = 100%
target = STK38L (Homo sapiens, UniProt Q9Y2H1); value = 89%
target = FLT1 (Homo sapiens, UniProt P17948); value = 100%

Further values, each from its own experiment
SMILES = COc1cc2/c(=N/c3ccc(Br)cc3F)nc[nH]c2cc1OCC1CCN(C)CC1; target = DNA polymerase theta, ATPase domain (POLQ, Homo sapiens, UniProt O75417); read-out = enzyme activity; mode = inhibitor; concentration = 77 µM; baseline = untreated; endpoint = remaining activity; value = 77.2%

Repeated from above (block 3):
target = CAMK2D (Homo sapiens, UniProt Q13557); value = 84%
target = STK38L (Homo sapiens, UniProt Q9Y2H1); value = 89%
target = NEK6 (Homo sapiens, UniProt Q9HC98); value = 86%
